Measured values of several laboratories.
Protocols differ between the studies behind these lines. Numbers after ± are the reported error.
Target: Cytochrome P450 2D6 (CYP2D6, Homo sapiens, UniProt P10635)
UniProt P10635, sequence (whole entry, looked up): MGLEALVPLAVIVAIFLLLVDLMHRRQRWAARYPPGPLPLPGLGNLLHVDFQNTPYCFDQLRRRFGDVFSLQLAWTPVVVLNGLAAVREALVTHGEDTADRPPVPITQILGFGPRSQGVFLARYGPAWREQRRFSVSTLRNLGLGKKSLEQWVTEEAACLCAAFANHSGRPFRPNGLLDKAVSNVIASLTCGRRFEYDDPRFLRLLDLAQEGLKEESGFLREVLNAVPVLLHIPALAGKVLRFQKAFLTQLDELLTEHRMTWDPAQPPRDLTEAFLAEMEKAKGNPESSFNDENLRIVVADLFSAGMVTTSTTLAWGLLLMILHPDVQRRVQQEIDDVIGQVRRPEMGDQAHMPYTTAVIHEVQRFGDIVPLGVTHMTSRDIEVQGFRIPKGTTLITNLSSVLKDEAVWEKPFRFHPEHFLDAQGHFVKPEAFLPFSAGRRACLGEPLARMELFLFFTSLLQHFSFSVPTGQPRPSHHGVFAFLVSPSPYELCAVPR

SMILES	assay	test system	setting	quantity	result
C[C@@H](NC(C)(C)C)C(=O)c1ccc(O)c(Cl)c1	enzyme activity, inhibitor	–	–	IC50	> 50 µM
CC[C@H]1CN2CCc3c([nH]c4cccc(OC)c34)[C@@H]2C[C@@H]1/C(=C\OC)C(=O)OC	enzyme activity, inhibitor	human, liver microsomes	–	IC50	12.9 µM
COc1ccc2c(c1)[C@]13CCCC[C@@H]1[C@H](C2)N(C)CC3	–	human, plasma	oral, dose not given, day 12, fluoxetine treatment, together with: fluoxetine	AUC(0-inf)	1.85 ± 0.8 µM·h
CNC(=O)O/N=C/C(C)(C)S(C)(=O)=O	inhibitor	human liver microsomes	10 µM, pH 7.4, together with: dextromethorphan	inhibition	4.23%
CC[C@@H]1CN2CC[C@@]3(O)C(=Nc4cccc(OC)c43)[C@@H]2C[C@@H]1/C(=C\OC)C(=O)OC	enzyme activity, inhibitor	human, liver microsomes	–	IC50	> 45 µM
CNC(=O)O/N=C/C(C)(C)[S+](C)[O-] (stereo not shown)	inhibitor	human liver microsomes	2 µM, pH 7.4, together with: dextromethorphan	inhibition	< 0%
C[C@H]1NC(C)(C)CO[C@]1(O)c1cccc(Cl)c1	enzyme activity, inhibitor	human suspension hepatocytes	30 min, protein-free buffer, media concentrations, together with: dextromethorphan 1 µM	IC50	6.6 µM
CNC(C)Cc1ccc2c(c1)OCO2 (stereo not shown)	inactivator	proteoliposomes	5 to 100 µM, pH 7.4, together with: dextromethorphan substrate	kinact	0.000983 ± 0.0002 s⁻¹
C[C@H](NC(C)(C)C)[C@@H](O)c1cccc(Cl)c1	enzyme activity, inhibitor	–	–	IC50	13 µM
N#Cc1ccc(C(O)c2ccc(C#N)cc2)cc1	inhibitor	–	–	IC50	158 µM

For quick reference, copied from above:
SMILES	assay	test system	setting	quantity	result
CNC(C)Cc1ccc2c(c1)OCO2 (stereo not shown)	inactivator	proteoliposomes	5 to 100 µM, pH 7.4, together with: dextromethorphan substrate	kinact	0.000983 ± 0.0002 s⁻¹
